Measured values of several laboratories.
Lines come from different studies, so protocols differ. Numbers after ± are the reported error.

For CC[C@H](C)[C@H](NC(=O)[C@H](Cc1ccccc1)NC(=O)[C@H](CC(=O)O)NC(=O)[C@H](CCCNC(=N)N)NC(=O)[C@H](Cc1ccccc1)NC(=O)[C@H](CC1CCCCC1)NC(=O)[C@H](CCCCN)NC(=O)[C@H](CO)NC(=O)[C@H](CC(C)C)NC(=O)[C@H](CCCNC(=N)N)NC(=O)[C@H](CCSC)NC(=O)[C@H](C)N)C(=O)N[C@@H](CC(C)C)C(=O)N[C@@H](CCC(N)=O)C(=O)N[C@@H](CCCNC(=N)N)C(=O)N[C@@H](CCCCN)C(=O)N[C@@H](CCCCN)C(=O)O, hemolysis read “not toxic” (rabbit erythrocytes; concentration not given, 30 min, 37 °C; relative to: Triton X-100).
The tissue uptake of CSCC[C@@H]1NC(=O)[C@H](CC(=O)O)NC(=O)CNC(=O)[C@H](CCCNC(=N)N)NC(=O)[C@H](C)NC(=O)[C@H](CCC(=O)O)NC(=O)[C@H](CCCNC(=N)N)NC(=O)[C@@H]2CSSC[C@@H]3NC(=O)[C@H](CO)NC(=O)[C@H]([C@@H](C)O)NC(=O)[C@@H]4CCCN4C(=O)[C@H](C)NC(=O)[C@H](Cc4c[nH]c5ccccc45)NC(=O)[C@H](CC(=O)O)NC(=O)CNC(=O)[C@H](CCCNC(=N)N)NC(=O)CNC(=O)[C@H](CCC(N)=O)NC(=O)[C@@H]4CCCN4C(=O)[C@@H](NC(=O)CNC(=O)C(C)F)CSSC[C@H](NC(=O)CNC(=O)[C@H](C)NC(=O)[C@H](CC(C)C)NC(=O)[C@H](CSSC[C@@H](C(=O)NCC(N)=O)NC(=O)[C@H]([C@@H](C)O)NC(=O)[C@H](CCCNC(=N)N)NC(=O)[C@@H]4CCCN4C1=O)NC(=O)[C@H](CC(=O)O)NC(=O)[C@H](CO)NC(=O)[C@H](CC(=O)O)NC(=O)[C@H](CCC(N)=O)NC(=O)[C@H](CO)NC3=O)C(=O)N[C@@H](C(C)C)C(=O)N2 (stereo partly drawn) [fluorine-18 labelled] is reported as 0.22 ± 0.05 %ID/g (nude mice U-87 MG xenograft, muscle; intravenous, 1 h).
CN[C@@](C)(C[18F])C(=O)O gave a tumour uptake of 4.1 ± 0.7 %ID/g (SCID mice (MDA-MB-468 xenograft); 120 min after injection).
The tissue/plasma ratio of [123I]c1cncc(OC[C@@H]2CCN2)c1 is reported as 21.7 (SPECT; human, hippocampus; intravenous bolus, 8.6 mCi; relative to: tissue over plasma).
For CC(C)C[C@@H]1NC(=O)CNC(=O)[C@@H]2CCCN2C(=O)CNC(=O)[C@H](CCCNC(=N)N)NC(=O)[C@H](Cc2ccccc2)NC(=O)CNC(=O)[C@H](Cc2ccc(O)cc2)NC(=O)CNC(=O)[C@H](CCCNC(=N)N)NC(=O)[C@H](C)NC(=O)[C@H](CCCNC(=N)N)NC(=O)[C@H](Cc2ccccc2)NC(=O)[C@@H](N)CSSC[C@@H](C(=O)O)NC1=O, the stability time was greater than 23 h (RP-HPLC; MDCK cell lysate; pH 7.4, 37 °C).
For CC[C@H](C)[C@H](NC(=O)[C@H](C)NC(=O)[C@H](CCCCN)NC(=O)[C@H](CO)NC(=O)[C@H](CCC(=O)O)NC(=O)[C@@H]1CCCN1C(C)=O)C(=O)N[C@@H](CCCCN)C(=O)N[C@@]1(C)CCCC=CCCC[C@@](C)(C(=O)N[C@H](C(=O)N[C@@H](CO)C(=O)N[C@@H](CCCCN)C(=O)N[C@@H](CCC(=O)O)C(=O)N[C@@H](CCCNC(=N)N)C(=O)N[C@@H](CO)C(=O)N[C@@H](CCCCN)C(=O)N[C@@H](CCCNC(=N)N)C(=O)N[C@@H](CO)C(=O)N2CCC[C@H]2C(N)=O)C(C)C)NC(=O)[C@H](CCCCN)NC(=O)[C@H](CC(C)C)NC(=O)[C@H](CC(C)C)NC1=O, the particle diameter was roughly 11 nm (TEM; PBS; 200 µM, pH 7.4).
The NOAEL of CCC1=C[C@@H]2CN(C1)Cc1c([nH]c3ccccc13)[C@@](C(=O)OC)(c1cc3c(cc1OC)N(C)[C@H]1[C@@](O)(C(=O)OC)[C@H](OC(C)=O)[C@]4(CC)C=CCN5CC[C@]31[C@@H]54)C2 is reported as 30 mg/m² (mice).
For CC(C)C[C@H](NC(=O)[C@H](CCC(=O)O)NC(=O)[C@H](CCC(=O)O)NC(=O)[C@H](CC(=O)O)NC(=O)[C@H](CCC(=O)O)NC(=O)[C@H](CCC(=O)O)NC(=O)[C@H](CCC(=O)O)NC(=O)[C@@H](N)CC(=O)O)C(=O)O, the concentration was 1.13 ng/mL (rat, CSF; intranasal, 5.5 mg/kg, 30 min).
COC(=O)N[C@H](C(=O)N1CCC[C@H]1C(=O)Nc1ccc([C@@H]2CC[C@@H](c3ccc(NC(=O)[C@@H]4CCCN4C(=O)[C@@H](NC(=O)OC)C(C)C)cc3)N2c2ccc(C(C)(C)C)cc2)cc1)C(C)C gave an AUCtau of 1430 ng·h/mL (healthy volunteers; oral, dose not given, without digoxin).
For C[N+](C)(C)[C@@H](Cc1c[nH]c(=S)[nH]1)C(=O)[O-], “decrease in tissue partition coefficient” read 41.8% (rat treated with 1,25-dihydroxyvitamin D3, liver; intravenous; relative to: untreated control rats).
CC(C)C(=O)OC[C@H]1O[C@@H](n2ccc(NO)nc2=O)[C@H](O)[C@@H]1O gave a remaining compound of 108 ± 3.29% (rat blood dialysate; 250 ng/mL, 6 h, room temperature, bench-top stability, added: NHC 1000 ng/mL).
The Tmax of O=c1[nH]c(Cc2ccccn2)nc2c1cnn2C1CCOCC1 is reported as 30 min (healthy men, extensive metabolizers, plasma; oral, 100 mg single dose, tablet, median).

Excerpt of the above:
The tissue uptake of CSCC[C@@H]1NC(=O)[C@H](CC(=O)O)NC(=O)CNC(=O)[C@H](CCCNC(=N)N)NC(=O)[C@H](C)NC(=O)[C@H](CCC(=O)O)NC(=O)[C@H](CCCNC(=N)N)NC(=O)[C@@H]2CSSC[C@@H]3NC(=O)[C@H](CO)NC(=O)[C@H]([C@@H](C)O)NC(=O)[C@@H]4CCCN4C(=O)[C@H](C)NC(=O)[C@H](Cc4c[nH]c5ccccc45)NC(=O)[C@H](CC(=O)O)NC(=O)CNC(=O)[C@H](CCCNC(=N)N)NC(=O)CNC(=O)[C@H](CCC(N)=O)NC(=O)[C@@H]4CCCN4C(=O)[C@@H](NC(=O)CNC(=O)C(C)F)CSSC[C@H](NC(=O)CNC(=O)[C@H](C)NC(=O)[C@H](CC(C)C)NC(=O)[C@H](CSSC[C@@H](C(=O)NCC(N)=O)NC(=O)[C@H]([C@@H](C)O)NC(=O)[C@H](CCCNC(=N)N)NC(=O)[C@@H]4CCCN4C1=O)NC(=O)[C@H](CC(=O)O)NC(=O)[C@H](CO)NC(=O)[C@H](CC(=O)O)NC(=O)[C@H](CCC(N)=O)NC(=O)[C@H](CO)NC3=O)C(=O)N[C@@H](C(C)C)C(=O)N2 (stereo partly drawn) [fluorine-18 labelled] is reported as 0.22 ± 0.05 %ID/g (nude mice U-87 MG xenograft, muscle; intravenous, 1 h).
CN[C@@](C)(C[18F])C(=O)O gave a tumour uptake of 4.1 ± 0.7 %ID/g (SCID mice (MDA-MB-468 xenograft); 120 min after injection).
